Experimental data from different studies.
Lines come from different studies, so protocols differ. “And” joins repeats or separate records; there may be more than shown. ± marks the error that the study gave.
UniProt Q16584, sequence (whole entry, looked up): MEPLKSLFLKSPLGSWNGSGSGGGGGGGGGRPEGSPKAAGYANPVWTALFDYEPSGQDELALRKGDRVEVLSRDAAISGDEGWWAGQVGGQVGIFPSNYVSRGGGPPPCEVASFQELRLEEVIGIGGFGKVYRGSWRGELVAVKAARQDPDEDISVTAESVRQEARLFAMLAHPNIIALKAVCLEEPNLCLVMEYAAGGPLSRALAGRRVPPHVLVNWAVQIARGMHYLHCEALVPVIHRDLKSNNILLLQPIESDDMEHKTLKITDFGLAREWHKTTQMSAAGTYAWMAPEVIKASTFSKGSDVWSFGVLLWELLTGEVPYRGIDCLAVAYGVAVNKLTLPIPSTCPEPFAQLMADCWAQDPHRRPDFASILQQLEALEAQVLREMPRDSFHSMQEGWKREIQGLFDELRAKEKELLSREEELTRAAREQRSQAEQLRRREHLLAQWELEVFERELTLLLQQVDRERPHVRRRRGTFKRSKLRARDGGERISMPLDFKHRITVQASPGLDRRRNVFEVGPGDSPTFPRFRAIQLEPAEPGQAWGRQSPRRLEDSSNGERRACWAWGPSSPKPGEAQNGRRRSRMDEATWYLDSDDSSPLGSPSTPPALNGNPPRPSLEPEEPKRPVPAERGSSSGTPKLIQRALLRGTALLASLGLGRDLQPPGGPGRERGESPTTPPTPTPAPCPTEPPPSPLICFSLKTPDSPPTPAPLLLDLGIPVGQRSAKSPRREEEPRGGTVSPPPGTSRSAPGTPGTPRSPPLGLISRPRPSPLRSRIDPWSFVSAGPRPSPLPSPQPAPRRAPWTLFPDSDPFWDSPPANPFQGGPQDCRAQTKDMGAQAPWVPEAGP

`CC(C)[C@@H]1NC(=O)CNC(=O)[C@H](CC(N)=O)NC(=O)[C@H](CCCNC(=N)N)NC(=O)[C@H](Cc2ccc(O)cc2)NC(=O)[C@H](C(C)C)NC(=O)[C@@H](NC(=O)[C@@H](NC(=O)[C@H](CC(N)=O)NC(=O)[C@H](Cc2c[nH]c3ccccc23)NC(=O)[C@H](C)NC(=O)[C@H](Cc2ccccc2)NC(=O)CNC(=O)[C@H](CCCCN)NC(=O)[C@H](Cc2ccccc2)NC(=O)[C@H](Cc2ccccc2)NC(=O)[C@H](CCCCN)NC(=O)OCC2c3ccccc3-c3ccccc32)C(C)C)CSSC[C@@H](C(=O)N[C@@H](Cc2c[nH]cn2)C(=O)N[C@@H](CCCNC(=N)N)C(=O)N[C@@H](CCCNC(=N)N)C(=O)N[C@@H](C)C(=O)N[C@@H](CC(N)=O)C(N)=O)NC(=O)[C@H](C(C)C)NC(=O)[C@H](CCCNC(=N)N)NC1=O` gave a peptide remaining of 50% and 51.8% and 55% (HPLC; trypsin buffer; 2.00 h, 37 °C, added: trypsin 1 % w/v).
With `CCCCC[C@@H]1OC(=O)[C@@H](C)N(C)C(=O)[C@H](CCCCC)N(C)C(=O)[C@@H](C)N(C)C(=O)[C@H](CCCCC)N(C)C(=O)[C@@H](C)N(C)C(=O)[C@H](CCCCC)N(C)C(=O)[C@@H](C)N(C)C1=O` the log Papp was 2.88 ×10⁻⁶ cm/s (PAMPA; 500 µM, pH 7.4).
`CCN(CC)CCOc1ccc(-c2nnn(Cc3ccc(OC)cc3)c2N)cc1`: “central nervous system function” “no effect” (Sprague-Dawley rat; oral, up to 100 mg/kg).
`N#[11C]c1ccc(-c2csc(NN=C3CCCC3)n2)cc1` gave a radioactivity uptake of 2.98 ± 0.45 %ID/g (C57BL/6 mice, male, lung; intravenous, 3 MBq, 60 min).
With `CCCCCCCCCCCCCC(=O)N[C@@H](Cc1ccccc1)C(=O)N[C@@H](Cc1ccccc1)C(=O)N[C@@H](Cc1ccccc1)C(=O)N[C@@H](Cc1ccc(O)cc1)C(=O)NCC(=O)N[C@@H](CCCNC(=N)N)C(=O)N[C@@H](CCCCN)C(=O)N[C@@H](CCCCN)C(=O)N[C@@H](CCCNC(=N)N)C(=O)N[C@@H](CCCNC(=N)N)C(=O)N[C@@H](CCC(N)=O)C(=O)N[C@@H](CCCNC(=N)N)C(=O)N[C@@H](CCCNC(=N)N)C(=O)N[C@@H](CCCNC(=N)N)C(=O)O` the zeta potential was 13.1 mV (10 mM PBS; 64 µM, overnight, pH 7.4).
With `COc1cccc(O)c1C(=O)/C=C/c1ccc2cc(N3CCCC3)ccc2c1` the tissue concentration was 158 ng/g (C57BL/6J mice, kidney; intraperitoneal, 50 mg/kg single, 4 h).
For `CC[C@H](C)[C@H](NC(=O)[C@H](CCCCN)NC(=O)CNC(=O)[C@H](CC(C)C)NC(=O)[C@H](Cc1ccccc1)NC(=O)[C@H](CCCCN)NC(=O)[C@H](CO)NC(=O)[C@H](Cc1ccccc1)NC(=O)[C@H](Cc1c[nH]c2ccccc12)NC(=O)[C@H](CCC(N)=O)NC(=O)[C@@H](NC(=O)[C@H](Cc1ccccc1)NC(=O)CCCCCNC(=O)CN1CCN(CC(=O)O)CCN(CC(=O)O)CCN(CC(=O)O)CC1)C(C)C)C(=O)N[C@@H](CCC(=O)O)C(=O)N1CCC[C@H]1C(=O)N[C@H](CC(=O)O)C(=O)N[C@H](C(=O)N[C@@H](CO)C(=O)N[C@@H](CCC(N)=O)C(=O)N[C@H](C(=O)N[C@@H](CCC(N)=O)C(=O)N[C@@H](CC(=O)O)C(=O)N1CCC[C@H]1C(=O)N[C@@H](CC(N)=O)C(=O)N[C@@H](CC(=O)O)C(=O)N[C@@H](CCC(N)=O)C(=O)N[C@@H](Cc1ccc(O)cc1)C(=O)N[C@@H](CCC(=O)O)C(=O)N1CCC[C@H]1C(=O)N[C@@H](Cc1ccccc1)C(=O)O)C(C)C)C(C)C` [copper-64 labelled], the tissue uptake was 33.5 ± 3 %ID/g (female mice, EMT6 tumour-bearing, kidneys; 2 h, uncleavable control tracer, vehicle-treated).
For `CC(C)C[C@@H](NC(=O)[C@@H](CCCCN)NC(=O)CNC(=O)CNC(=O)[C@@H]1CSSC[C@H](N)C(=O)NCC(=O)N[C@@H](CCCNC(=N)N)C(=O)N[C@@H](CCCNC(=N)N)C(=O)N[C@@H](C)C(=O)NCC(=O)NCC(=O)N[C@@H](CO)C(=O)N1)C(=O)N[C@H](C)C(=O)N[C@H](CCCCN)C(=O)N[C@H](CC(C)C)C(=O)N[C@H](C)C(=O)N[C@H](CCCCN)C(=O)N[C@H](CCCCN)C(=O)N[C@H](CC(C)C)C(=O)N[C@H](C)C(=O)N[C@H](CCCCN)C(=O)N[C@H](CC(C)C)C(=O)N[C@H](C)C(=O)N[C@H](CCCCN)C(=O)O`, “lowest detectable dose” read 0.3 mg/kg (immunohistochemistry; mouse, kidney; 20 min).
`O=C1NC2(CC2)COc2ncc(F)cc2[C@H]2COCCN2c2ccn3ncc1c3n2` gave a potassium of 4.62 ± 0.47 mmol/L (Sprague-Dawley rat, male, serum; oral, 5 mg/kg/day, 4 weeks daily, end of recovery period).
The logD of `CCCCc1cn([C@H]2[C@H]([C@H](O)[C@H](O)CO)OC(C(=O)OC)=C[C@@H]2O)nn1` is reported as 0.6 (shake flask; aqueous buffer; 2 h, pH 7.4).
The relative abundance of `COc1ccccc1-c1n[nH]c2nc(N[C@H]3CC[C@H](NS(=O)(=O)CC(C)C)CC3)ncc12` is reported as 0.97 (bead binding, competition bead pull-down, item: LINJ.28.3140; Leishmania donovani extract; 10 µM; relative to: vehicle).
With `CN1Cc2cc(Cl)ccc2-n2c(nnc2C2CCN(c3cccc(F)n3)CC2)C1` the concentration was 7.23 ng/mL (mass spectrometry; male Sprague-Dawley rat, brain; intravenous, 0.03 mg/kg, 5 min, single dose).
The viability of `Cc1ccc(NS(=O)(=O)c2c(C(=O)N3CCCCCC3)c(C)n(C)c2C)c(Cl)c1` is reported as 96.8% and 100% (HaCaT; 3.704 µM, 60 h).
For `CC(C)(C)C(=O)OCOP(=O)(OCOC(=O)C(C)(C)C)C1CCCN(O)C1=O` (stereo not shown), the log TGI was -5.9 log M (BT-549).
The tissue uptake of `CC[C@H](C)[C@H](NC(=O)[C@H](CO)NC(=O)[C@H](Cc1ccc(O)cc1)NC(=O)[C@H](Cc1ccc(O)cc1)NC(=O)[C@H](CC(N)=O)NC(=O)CNC(=O)[C@H](CO)NC(=O)[C@H](Cc1ccc(O)cc1)NC(=O)[C@H](CO)NC(=O)[C@H](CO)NC(=O)[C@H](CC(N)=O)NC(=O)COCCOCCNC(=O)CN1CCN(CC(=O)O)CCN(CC(=O)O)CCN(CC(=O)O)CC1)C(=O)N[C@@H](CC(C)C)C(N)=O` [copper-64 labelled] is reported as 14 %ID/mL (dynamic PET; KPC mouse Ptf1a-CreER tdTomato, metastases; intravenous, 4.6 MBq/mouse, 17.5 min, 84 d after tamoxifen).
For `CN(C)[C@H]1C[C@@]23CC[C@@]4(O2)C(=CC[C@]2(C)[C@@H](c5ccc6ccncc6c5)CC[C@H]24)C=C3[C@@H](O)[C@@H]1O`, the inhibition was -4.9% (Mitogen-activated protein kinase kinase kinase 11 (MAP3K11, Homo sapiens, UniProt Q16584); ATP probe labelling, inhibitor, KiNativ profiling; 0.1 µM).
For `Cc1ccccc1-c1ccc(-c2nc(-c3ccc(CN(C)CCCC(=O)O)c([18F])c3)no2)cc1C(F)(F)F`, the tracer uptake was 0.2 %ID/g (rat, blood; 5 min).
For `C(#Cc1cncc(OC[C@@H]2CCN2)c1)c1ccccc1`, the concentration was 410 ng/mL (male Sprague-Dawley rat, plasma; oral, 75 mg/kg, 2 h).
`COc1ccccc1-c1n[nH]c2nc(NC3CCN(C(=O)Cc4ccc(F)cc4F)CC3)ncc12` has a relative abundance of 1.09 (bead binding, competition bead pull-down, item: LINJ.28.3140; Leishmania donovani extract; 10 µM; relative to: vehicle).

Excerpt of the above:
The logD of `CCCCc1cn([C@H]2[C@H]([C@H](O)[C@H](O)CO)OC(C(=O)OC)=C[C@@H]2O)nn1` is reported as 0.6 (shake flask; aqueous buffer; 2 h, pH 7.4).
For `CN(C)[C@H]1C[C@@]23CC[C@@]4(O2)C(=CC[C@]2(C)[C@@H](c5ccc6ccncc6c5)CC[C@H]24)C=C3[C@@H](O)[C@@H]1O`, the inhibition was -4.9% (Mitogen-activated protein kinase kinase kinase 11 (MAP3K11, Homo sapiens, UniProt Q16584); ATP probe labelling, inhibitor, KiNativ profiling; 0.1 µM).
With `COc1cccc(O)c1C(=O)/C=C/c1ccc2cc(N3CCCC3)ccc2c1` the tissue concentration was 158 ng/g (C57BL/6J mice, kidney; intraperitoneal, 50 mg/kg single, 4 h).
